Results collected from several papers.
Each numbered part is a random draw from the data of one study; scales do not carry over between parts.

Series 1
Target: PABPC1L2, full length, GST fusion (mouse, UniProt A0ABA7IW68)
Method: RNAcompete
Form: RNA
Matrix: in vitro
Concentration: 20 nM
Setting: 7-mer, probes averaged, single round
Reference: mean of 7-mers
Reading: higher = stronger binding
Quantity: 7-mer Z-score
Target sequence (chain): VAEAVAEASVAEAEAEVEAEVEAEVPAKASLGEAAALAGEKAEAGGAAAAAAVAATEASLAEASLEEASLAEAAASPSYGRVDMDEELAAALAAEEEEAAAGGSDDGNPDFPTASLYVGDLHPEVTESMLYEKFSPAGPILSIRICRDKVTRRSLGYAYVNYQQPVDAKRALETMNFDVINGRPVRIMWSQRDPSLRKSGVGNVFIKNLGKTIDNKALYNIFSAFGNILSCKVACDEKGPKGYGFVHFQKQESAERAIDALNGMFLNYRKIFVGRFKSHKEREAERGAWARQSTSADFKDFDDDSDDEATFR
CCCGUUU: -0.396
AGACGCG: -0.209
UAAUCCU: -0.338
CCCAGUA: -0.233
UAAAUGU: 0.195
UAUACUC: -0.347
AGCCAUG: -0.161
CCCUCUC: -0.456
ACUGUUA: -0.32
CGCCUAC: -0.313
AGUCCUA: -0.356
CAUUGCA: -0.115
AGCAGAA: 0.379
AUAGGCU: 0.00436
CCAUAUC: -0.24
AUCCCCA: -0.34
ACACCCA: -0.233

Series 2
Target: Interferon regulatory factor 5, full length, phosphomimetic (IRF5, Homo sapiens, UniProt Q13568-2, residues 1-514, K96S/S451D/S453D/S456D/S462D)
Method: protein-binding microarray
Form: double-stranded DNA, one strand shown
Matrix: in vitro
Concentration: 250 nM
Setting: 60-bp whole probe
With: salmon DNA 0.4 mg/ml
Reference: random background probes
Reading: higher = stronger binding
Quantity: log fluorescence
All sequences stand within: GCCTAGCAC … GTCTTGATTCGCTTGACGCTGCTG
TTAGAACTGGGGACTGGACTAGTGCTA: -0.249 z-score
TCACGTCTGGGTGTTTTACTGTGCTAG: -0.0168 z-score
TTAGGTTTCGACTTTCGGCTAGTGCTA: 9.46 z-score
TTAGGTCTCCTTTTCCTTTTGTGCTAG: 0.407 z-score
CCCTATTTAAGGCATCTGCAGGTGCTA: -0.236 z-score
TTAGGTCTCCTTCTTCTTTAGTGCTAG: 0.208 z-score
TTGTGTCTGGGCATTTTTTTAGTGCTA: -0.281 z-score
GACGGTATCCTTTTCCTCACGTGCTAG: 0.682 z-score
ATAAAAATCTTTGTTGGAGGGGTGCTA: 0.618 z-score
TCAATTCTCAGCCCTGCGACTGTGCTA: 0.0182 z-score
GTCCCTATCTCCTCACAGACCGTGCTA: 0.121 z-score
TCATCTCTGCTTGTATCACTGTGCTAG: 1.07 z-score
TTAGGTTTCGACACTGGCTTAGTGCTA: 5.59 z-score
TTAGGTTTCGACAGTGGGTTAGTGCTA: 5.74 z-score
TTAGGACTGCTTCTCCTTTGGTGCTAG: -0.446 z-score
AGAGATTTCAGGAATTGAAAAGTGCTA: 0.746 z-score
TTAGGTCTGCTACTGCTTTAGTGCTAG: -0.388 z-score
GACGAACTGGGGACGGGAGACGTGCTA: -0.529 z-score
TCACATTTATTTACTCTCACTGTGCTA: 1.22 z-score
TTAGATTCCAGTCTCGATTAGTGCTAG: 1.15 z-score
GACGGTTTCGGATTCGGGACGTGCTAG: 4.78 z-score
TCATTTTTTTTTTTTTAACTGTGCTAG: 1.06 z-score
TTTCCTTTGCCTCTGAGGCTGTGCTAG: 2.85 z-score
TTAGGTATCGGACTGGGTTTGTGCTAG: 1.5 z-score
GACGATATCATACTGGAGACGTGCTAG: 0.483 z-score

Series 3
Target: Histone acetyltransferase KAT6A, winged helix 1, GST fusion (KAT6A, Homo sapiens, UniProt Q92794, residues 1-85)
Method: protein binding microarray
Form: double-stranded DNA, one strand shown
Matrix: in vitro
Concentration: not given
Setting: 8-mer, flanks averaged, mean of 2 arrays, mostly near background
Reference: not given
Reading: higher = stronger binding
Quantity: E-score
Construct (chain): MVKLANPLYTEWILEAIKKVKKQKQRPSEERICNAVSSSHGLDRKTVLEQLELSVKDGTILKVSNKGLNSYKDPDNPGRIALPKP
ATAGGCTG: -0.215
AACGTGTG: -0.305
CAAGCGTG: 0.117
CATGGGGC: -0.0675
TCAGATAA: -0.208
AGCCCGCT: 0.264
GAGCGAGC: 0.122
ATGAGAAC: -0.0462
AACATGCA: -0.0214
GATCGCCC: 0.12
CTTTCAGC: 0.135
GTCGTCAC: 0.0146
ACTCTGGA: -0.155
AGGCTAGA: -0.188
AGTGACTC: -0.159
ATGCTTTA: 0.0143
ACCTGCTC: -0.0883
GGAAGTAA: -0.0766
AAGGCCCG: 0.269
CTATTATC: -0.149
ATTCCCTG: -0.22

Series 4
Target: Ras GTPase-activating protein-binding protein 1, full length (G3BP1, Homo sapiens, UniProt Q13283)
Sequence of UniProt Q13283 (whole entry, looked up): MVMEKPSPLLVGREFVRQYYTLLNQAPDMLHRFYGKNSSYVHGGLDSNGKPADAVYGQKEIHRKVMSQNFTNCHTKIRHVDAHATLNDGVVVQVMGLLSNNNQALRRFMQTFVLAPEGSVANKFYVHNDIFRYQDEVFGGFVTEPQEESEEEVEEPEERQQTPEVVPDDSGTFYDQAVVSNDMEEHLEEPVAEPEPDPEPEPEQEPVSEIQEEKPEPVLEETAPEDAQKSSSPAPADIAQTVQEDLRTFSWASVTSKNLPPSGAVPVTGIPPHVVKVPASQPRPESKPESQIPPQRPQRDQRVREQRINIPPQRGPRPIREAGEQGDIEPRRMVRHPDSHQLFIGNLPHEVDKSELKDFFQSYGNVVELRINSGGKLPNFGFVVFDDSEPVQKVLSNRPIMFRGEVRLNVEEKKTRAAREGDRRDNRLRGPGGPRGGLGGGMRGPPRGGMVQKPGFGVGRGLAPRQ
Method: RNA Bind-n-Seq
Form: RNA
Matrix: in vitro
Concentration: 200 nM
Setting: whole 134-nt RNA, ends assumed
With: 150 mM KCl
Reference: input library
Reading: higher = stronger binding
Quantity: log2 enrichment
All sequences stand within: GGGAGUUCUACAGUCCGACGAUC … UGGAAUUCUCGGGUGUCAAGG
AGUCCUGUGCUACACAUCGUAUGUACCGAAUCGGGGUUUGGGGUGGGGUUUUUGGGGAAAGUAUUAUGUUACGCCGUUCGGAUCUGCACU: 0.334
UGGCUAGUCAGCAGCGGAUGUCCCCUCCAGGUUAAGAAAGCCGAACCAGAGCCGAUGCGAGAGGAGGAGAAAAUGAUUCCUCCUACGAAA: 0.0591
CCUGUGCUACACAUCGUAUGUACCGAAUCGGGGUUUUUGGGGUUUUUGGGGAAAAAGGGGAAAGUAUUAUGUUACGCCGUUCGGAUCUGC: 0.106
GUCCUGUGCUACACAUCGUAUGUACCGAAUCGGGCCCCCGGGGCCCCCGGCCCCCGGGGAAAGUAUUAUGUUACGCCGUUCGGAUCUGCA: -0.961
UAACUUUAGAGGAGGAUCUGAUGGAUAUGGCAGUGGACGUGGAUUUGGGGAUAGCUAUAAUGGGUAUGGAGGAGGACCUGGAGGUGGCAA: 0.473
CUGUGCUACACAUCGUAUGUACCGAAUCGGGAAAAAAAGGGAAAAAAAGGGUUUUUUUGGGAAAGUAUUAUGUUACGCCGUUCGGAUCUG: -1.28
CACAGACAACACGCACCCACACAGACACAGAGGGAAGGUGUUGGGAUGGGGACAGGGUGCACAGCAGGGCGGGGUAGGACCCCAGCCCCU: 1.36
GCAGGAAGUAAAAACAAAUGGAAAUGCUUCGGAUAGUGGCAGAGGUGGGGGUUGCUAAGGAAAGGGUGGGAUGGGAGUGGGUAAAGAGUU: 1.05
CUCAAGUCCUGUGCUACACAUCGUAUGUACCGAAUCGGUUGGGUUGGGUUGGGGAAAGUAUUAUGUUACGCCGUUCGGAUCUGCACUUCC: 0.575
UGGUGUUCAUAUUGCUGAUGUGAGCCAUUUUAUUAGGCCAGGAAAUGCCUUGGAUCAAGAAUCAGCCAGAAGAGGAACAACUGUGUAUCU: -0.349
UAACUUUUGAGGAGGAUCUGAUGGAUAUGGCAGUGGACGUGGAUUUGGGGAUGGCUAUAAUGGGUAUGGAGGAGGACCUGGAGGUGGCAA: 0.523
UCAAGUCCUGUGCUACACAUCGUAUGUACCGAAUCGGAAAGGAGGUUUUUUUGGAAAGUAUUAUGUUACGCCGUUCGGAUCUGCACUUCC: -0.991
AAGUCCUGUGCUACACAUCGUAUGUACCGAAUCGGGGUGGGGAGGGGAAAAAGGGGAAAGUAUUAUGUUACGCCGUUCGGAUCUGCACUU: 0.523
AAGUCCUGUGCUACACAUCGUAUGUACCGAAUCGGGAAAAAGGGAAAGGGAAAGGGAAAGUAUUAUGUUACGCCGUUCGGAUCUGCACUU: 0.0618

Series 5
Target: RNA binding protein fox-1 homolog 2, RRM domain, GST-SBP tag (RBFOX2, Homo sapiens, UniProt O43251-10, residues 100-194)
Method: RNA Bind-n-Seq
Form: RNA
Matrix: in vitro
Concentration: 365 nM
Setting: natural RNA segment, single round, ends assumed
Reference: no-protein control
Reading: higher = stronger binding
Quantity: RBNS enrichment (R)
All sequences stand within: GGGAGUUCUACAGUCCGACGAUC … UGGAAUUCUCGGGUGCCAA
Residues (chain): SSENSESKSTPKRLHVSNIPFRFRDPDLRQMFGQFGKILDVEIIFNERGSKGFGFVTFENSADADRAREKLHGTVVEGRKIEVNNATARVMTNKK
GUGUGUGUAUGCGGUCUGUAACUAUUGCCAUAUAAAUAAAAAAUCCUGUUGCACUAGUGUCCUGCCAUCCCACUGCCACUGAUUCUUUCCUGUGUAAAUUCUGUGUGUGC: 1.45
GGAUUGUCCUCUUGGUGGACCGGAGUCCUGUCCUUCUCUGCCAAAGAGUUUUACCAAGAUGAAAAGGGUUGAAACACCUGUGAGUGCCUUACAUGGGAAGAACUGCUCUA: 0.268
UUAUAACAUAUCCAGCCAUUUCAAUUUUGAUUGAAAUGAACUACAAAGAAUAGUGUUUGUCCCUAUGGUAGCCUCAGUCUCUUUAUCACUAACUUGGAUUGAAAUGAGUG: 0.337
AAGCUCCUGUCAGACUCUCAGAAGGGUCUGUGGGUGUUGUAUAUUAGGCAAACAGGGGAAAGCUUAGAGGUCCUUCUAUAUGUGUUAAUAAGCUGUUUCUAAGUGUUUAA: 0.352
CAAGCAUGCUCAGUGCCUUUUGGUUUCCCCUCCUUCCCCUAGAUUCAGUUUUGCUCCCUCUGGGUUUUUAUAAGAUUUGCCAUGACAUUUCAUCUGGGUGGUCCAGAUAG: 4.31
GUGUGUGGGAUUACAGCCAAAGUAUACUUGUCAACAUAUACGAAGUCUCUAGUCCUAACUUUUAAAGAUCUAAGGUUCCUUGGAAGUUAUUUGAAGGCCAAGAGACCUUU: 0.331
CCGACAGUGGCGUAAACAGGAGACAUCACCCUAUACUGCGAAACUACAGAAAGGAAGACAGCUUGGCCCAGCGGGCUGAAGUUCAGAAUUCACUAGGUAGUUGUUGUUGG: 0.296
UGCAUUUCAAACUAAUCCAAUAUUUAGUGUUUCACAGAAACACUAGAAAACGUUGAACACUCCUACUGCCUGGAUAUAUGGUAGUGCAGUUAUGUUGUUUAUGGCUCAAG: 0.31
GGCUUGAGUGUGUGAAUAUGAUGUGUGCACAUGCUUAAUGAGCGUGCAAGUGUGCACACGUUUGUGGAGAGGAGGGUGUUCUGGCCUGAGAAGGUAAAGAAGAGGCAUGU: 6.21
UUAAGUUACAAUUACAUCUCUAAUUUUGGAUAAUAUUCAUUGGUUAACAAUAAAGUGACAAAAGCUCUGCCUUCAAGGUCCACUGUUGUUAUUUAACAUGGAUUUUUUGU: 0.285
UGCCGAAAACAGGAGCAAAUGGCGUUUUAUAAAUUAUUUUUUUGAAAUAAAGCUCUGUGUGCCUGGGUCUUCCCUGAGCAACAUGGAGUGGGGUGAGGUGGAGGGAUCCC: 0.881
GGAGGGUUCUAGUCUGUGCAAACAUUAAUAAAAAUUAUUUUGAAUUUUAGGAUUUUAAAAUGGUUGAAUUAAUUUAAAAUUGUCUUAAUUCUACUCUUAAUACUUCACUG: 0.459

Some of these lines once more (series 4):
CUCAAGUCCUGUGCUACACAUCGUAUGUACCGAAUCGGUUGGGUUGGGUUGGGGAAAGUAUUAUGUUACGCCGUUCGGAUCUGCACUUCC: 0.575
AAGUCCUGUGCUACACAUCGUAUGUACCGAAUCGGGGUGGGGAGGGGAAAAAGGGGAAAGUAUUAUGUUACGCCGUUCGGAUCUGCACUU: 0.523
GCAGGAAGUAAAAACAAAUGGAAAUGCUUCGGAUAGUGGCAGAGGUGGGGGUUGCUAAGGAAAGGGUGGGAUGGGAGUGGGUAAAGAGUU: 1.05
AAGUCCUGUGCUACACAUCGUAUGUACCGAAUCGGGAAAAAGGGAAAGGGAAAGGGAAAGUAUUAUGUUACGCCGUUCGGAUCUGCACUU: 0.0618
CCUGUGCUACACAUCGUAUGUACCGAAUCGGGGUUUUUGGGGUUUUUGGGGAAAAAGGGGAAAGUAUUAUGUUACGCCGUUCGGAUCUGC: 0.106
UGGCUAGUCAGCAGCGGAUGUCCCCUCCAGGUUAAGAAAGCCGAACCAGAGCCGAUGCGAGAGGAGGAGAAAAUGAUUCCUCCUACGAAA: 0.0591
CACAGACAACACGCACCCACACAGACACAGAGGGAAGGUGUUGGGAUGGGGACAGGGUGCACAGCAGGGCGGGGUAGGACCCCAGCCCCU: 1.36
UGGUGUUCAUAUUGCUGAUGUGAGCCAUUUUAUUAGGCCAGGAAAUGCCUUGGAUCAAGAAUCAGCCAGAAGAGGAACAACUGUGUAUCU: -0.349
AGUCCUGUGCUACACAUCGUAUGUACCGAAUCGGGGUUUGGGGUGGGGUUUUUGGGGAAAGUAUUAUGUUACGCCGUUCGGAUCUGCACU: 0.334
CUGUGCUACACAUCGUAUGUACCGAAUCGGGAAAAAAAGGGAAAAAAAGGGUUUUUUUGGGAAAGUAUUAUGUUACGCCGUUCGGAUCUG: -1.28
